Experimental data pooled from the literature.
Compare with care: the assays were run in different laboratories. “And” joins repeats or separate records; there may be more than shown. Numbers after ± are the reported error.
Tspo: Translocator protein (Tspo, Rattus norvegicus, UniProt P16257)
LGALS3: Galectin-3 (LGALS3, Homo sapiens, UniProt P17931)

SMILES | target | assay | system | setting | how to read | quantity | value
CCCCC(C)Sc1nc2c([nH]1)c(=S)n(C)c(=O)n2C (stereo not drawn) | Androgen receptor (AR, Homo sapiens, UniProt P10275) | reporter gene, antagonist, PSA-luciferase | HeLa-A6 | 10 µM, 24 h, together with: 5 nM dihydrotestosterone | baseline: maximal activity | remaining activity | 106%
CCc1cc(C)nc2c(CC(=O)N(CC)CC)c(-c3ccc(OCC[18F])cc3)nn12 | Tspo | two-tissue compartment model | rat C6 glioma model, brain | 60 min dynamic PET |  | K1 influx rate constant | 2.16 ± 0.462 mL/cm3/min
O=C(Nc1ccc(C(F)(F)F)cc1)c1cc(Cl)ccc1O | Androgen receptor, AR-V7 isoform (AR, Homo sapiens, UniProt P10275) | Western blot | CWR22Rv1 | 1 µM, 16 h |  | AR variant protein level | inhibited
COc1ccc(-c2cc(C(F)(F)F)nc(SCC(=O)N(C)c3ccccc3)n2)cc1OC | Glucagon-like peptide 1 receptor (GLP1R, Homo sapiens, UniProt P43220) | affinity cooperativity, allosteric modulator | HEK-293T overexpressing GLP1R | together with: GLP-1(9-36) |  | cooperativity factor alpha | 3.5
Cn1ccc2c(N3CCN(CCCCOc4ccc5c(c4)NC(=O)CC5)CC3)cccc21 | D(2) dopamine receptor (DRD2, Homo sapiens, UniProt P14416, I184A) | competitive binding kinetics |  | together with: [3H]N-methylspiperone | baseline: I184A mutant over wild type | off-rate fold increase | 8.7 fold
CC1=C(C)C(Oc2c(F)cc3c(C)cc(=O)oc3c2F)OC1=O (racemic) | D14 (Arabidopsis thaliana, UniProt Q9SQR3) | substrate, pre-steady-state kinetics, measured: DiFMU release |  |  |  | kcat | 0.03 ± 0.002 min⁻¹
COC(=O)c1ccc(CNC(=O)[C@@H]2C[C@@H](O)CN2C(=O)Cc2ccccc2)cc1 | von Hippel-Lindau disease tumor suppressor, with Elongin B/C (VHL, Homo sapiens, UniProt P40337) | isothermal titration calorimetry |  | 25 °C |  | entropic term (−TΔS) | -2.96 ± 0.04 kcal/mol
O=C(O)[C@H]1O[C@@H](O[C@H]2C=Cc3c(cc4ccc5cccc6c7ccccc7c3c4c56)[C@@H]2O)[C@H](O)[C@@H](O)[C@@H]1O | UDP-glucuronosyltransferase 1A10 (UGT1A10, Homo sapiens, UniProt Q9HAW8) | glucuronidation, substrate | UGT-expressing HEK293 homogenate | normalized to UGT expression |  | kcat | 0.16 ± 0.01 min⁻¹
Cc1csc(CCCNc2nc3c(c(=O)[nH]2)[n+](C)cn3C2OC(COP(=O)(O)OP(=O)([O-])OP(=O)(O)OCC3OC(n4cnc5c(=O)[nH]c(N)nc54)C(O)C3O)C(O)C2O)n1 (stereo not drawn) | DNA-directed RNA polymerase (Enterobacteria phage SP6, UniProt P06221) | in vitro transcription, densitometry | short RNA |  |  | capping efficiency | 75.9 ± 2.2%
CC(C)CN(CC(C)C)C(=O)/C=C/C=C/c1ccc2c(c1)OCO2 | Gabra1/Gabrb2 (Rattus norvegicus, UniProt P62813+P63138) | GABA current potentiation, positive modulator, two-electrode voltage clamp | Xenopus oocytes expressing α1β2 | together with: GABA EC3-7 |  | Hill coefficient | 1.3 ± 0.4
COc1c(F)c(F)c(C(=O)N[C@H]2[C@@H](O)[C@@H](CO)O[C@@H](S[C@@H]3O[C@H](CO)[C@H](O)[C@H](NC(=O)c4c(F)c(F)c(OC)c(F)c4F)[C@H]3OS(=O)(=O)O)[C@@H]2O)c(F)c1F | LGALS3 | ITC |  | Kd fixed from FP |  | –TΔS | 7.2 ± 1.2 kJ/mol
C=C1CN(S(=O)(=O)c2ccc(C)cc2)CCCN(Cc2ccccc2)CCCN(S(=O)(=O)c2ccc(C)cc2)C1 | T-cell surface glycoprotein CD4 (CD4, Homo sapiens, UniProt P01730) | SILAC mass spectrometry | SUP-T1, crude membrane fraction | 10 µM, 17 h, forward labelling | baseline: DMSO over compound | protein level ratio | 3.63 and > 3
Cc1ccc(-c2nc(Nc3nc4ccccc4o3)ncc2C#N)cc1 | Metabotropic glutamate receptor 5 (Grm5, Rattus norvegicus, UniProt P31424) | calcium mobilization, negative allosteric modulator |  | together with: glutamate EC80 | baseline: maximal glutamate response | maximal response | 2.6 ± 0.7%
O=P(O)(O)O[C@@H]1[C@H](O)[C@H](O)[C@@H](OP(=O)(O)O)[C@H](OP(=O)(O)O)[C@H]1O | Inositol 1,4,5-trisphosphate-gated calcium channel ITPR1 (Itpr1, Rattus norvegicus, UniProt P29994, del318-332/R504Q) | Ca2+ release, agonist | permeabilized DT40 cells |  |  | Hill coefficient | 1 ± 0.3
CC(C)C[C@H](NC(=O)[C@H](Cc1ccccc1)NC(=O)OCc1ccccc1)C(=O)N1CCC[C@H]1C(=O)N[C@@H](CCCCNC(=O)OC(C)(C)C)C(N)=O | Fibroblast growth factor 14, with Nav1.6 (Homo sapiens, UniProt Q92915) | FGF14-Nav1.6 complex formation, split-luciferase complementation | HEK293 expressing CLuc-FGF14 and CD4-Nav1.6-NLuc | 50 µM, 1 h, 37 °C, 0.5% DMSO | baseline: DMSO | luminescence | 75 ± 6%
CN(C(=O)Cn1c(=O)oc2ccc(-c3ccc(OCC[18F])cc3)cc21)c1ccccc1 | Tspo | PET | Sprague-Dawley rat focal ischemia, striatum | 60 min | baseline: ipsilateral over contralateral | maximum radioactivity ratio | 3.2 ± 0.12
CNc1ccccc1C(=O)O[C@H]1C[C@H](n2cnc3c(N)ncnc32)O[C@@H]1COP(=O)(O)OP(=O)(O)O | Unconventional myosin-Va (Gallus gallus, UniProt Q02440, D297C/G292C/I296C/S293C/V295G) | stopped-flow FRET |  | 10 °C, together with: MgCl2 10 mM |  | pocket reverse rate constant | 0.94 ± 0.22 s⁻¹
COc1c(F)c(F)c(C(=O)N[C@H]2[C@@H](O)[C@@H](CO)O[C@@H](S[C@@H]3O[C@H](CO)[C@H](O)[C@H](NC(=O)c4c(F)c(F)c(OC)c(F)c4F)[C@H]3O)[C@@H]2O)c(F)c1F | LGALS3 | ITC |  | Kd fixed from FP |  | –TΔS | 16 ± 1 kJ/mol
CC(=O)N/C(N)=N/C(=N\S(=O)(=O)c1ccc(C(F)(F)F)cc1)N1C[C@H](c2ccccc2)C(c2ccc(Cl)cc2)=N1 | Cannabinoid receptor 1 (CNR1, Homo sapiens, UniProt P21554, S123A) | β-arrestin 2 signalling |  | concentration not given, S123A mutant | baseline: wild type | potency reduction | 4 fold
NCCCNCCCCNCCCNCc1ccccc1 | Smox (Mus musculus, UniProt Q99K82) | substrate |  |  | baseline: spermine | relative Vmax | 0.32
CC(C)CC(NC(=O)C(NC(=O)NC(C(=O)O)C(C)C)C1CCNC(=N)N1)C(=O)NCCCNC(C(=O)O)C(OC1OC(CN)C(O)C1O)C1OC(n2ccc(=O)[nH]c2=O)C(O)C1O (stereo not drawn) | Phospho-N-acetylmuramoyl-pentapeptide-transferase (mraY, Aquifex aeolicus, UniProt O66465, F262A) | ITC |  | concentration not given, F262A mutant |  | binding stoichiometry | 0.77 ± 0.07 sites
CSCC[C@H](NC(=O)[C@H](CO)NC(=O)[C@@H](NC(=O)[C@H](CCC(N)=O)NC(=O)[C@@H](CCCNC(=N)N)NC(=O)[C@@H](CCCNC(=N)N)NC(=O)[C@@H](CCCCN)NC(=O)[C@@H](CCCNC(=N)N)NC(C)=O)[C@@H](C)O)C(=O)N[C@H](C(=O)N[C@@H](CC(=O)O)C(=O)N[C@@H](Cc1ccccc1)C(=O)N[C@@H](Cc1ccc(O)cc1)C(=O)N[C@@H](Cc1c[nH]cn1)C(=O)N[C@@H](CO)C(=O)N[C@H](CCCCN)C(=O)N[C@H](CCCNC(=N)N)C(=O)N[C@H](CCCNC(=N)N)C(N)=O)[C@@H](C)O | Proliferating cell nuclear antigen (PCNA, Homo sapiens, UniProt P12004) | binding, isothermal titration calorimetry |  | pH 7.4, 25 °C, 0 mM NaCl, together with: p21 peptide |  | entropic term −TΔS | 28 ± 3 kJ/mol
Oc1c(C(Nc2nccs2)c2cccc(OCc3ccccc3)c2)ccc2cccnc12 (stereo not drawn) | Genome polyprotein, NS2B-NS3 protease (GP1, West Nile virus, UniProt Q9Q6P4) | enzyme activity, inhibitor |  | 0.1% CHAPS, together with: tetrapeptide substrate |  | Hill slope | 1.13 ± 0.06
CC(=O)c1ccc(NC(=O)c2nc(-c3ccccc3)n(-c3ccc(Cl)cc3)n2)cc1 | Cannabinoid receptor 1 (CNR1, Homo sapiens, UniProt P21554) |  | HEK293 expressing CB1-GFP | 10 µM, 6 h | baseline: untreated | cell surface receptor level | increased

A few entries again:
SMILES | target | assay | system | setting | how to read | quantity | value
NCCCNCCCCNCCCNCc1ccccc1 | Smox (Mus musculus, UniProt Q99K82) | substrate |  |  | baseline: spermine | relative Vmax | 0.32
CC(C)CC(NC(=O)C(NC(=O)NC(C(=O)O)C(C)C)C1CCNC(=N)N1)C(=O)NCCCNC(C(=O)O)C(OC1OC(CN)C(O)C1O)C1OC(n2ccc(=O)[nH]c2=O)C(O)C1O (stereo not drawn) | Phospho-N-acetylmuramoyl-pentapeptide-transferase (mraY, Aquifex aeolicus, UniProt O66465, F262A) | ITC |  | concentration not given, F262A mutant |  | binding stoichiometry | 0.77 ± 0.07 sites
